Published values gathered from unrelated publications.
Numbered parts are unrelated; each lists some results of a single study. Changes are numbered by the printed parent chain.

Block 1 — technique: Spec-seq; form: double-stranded DNA, one strand shown; sample: in vitro; tested at: not given; setting: whole probe, mean of replicates; relative to: not given; reading: lower = stronger binding; all sequences stand within: GAGTCGTCTCGTCAGCAC … CCGTAGAGCACTCAGGTC
Target: POU, POU domain (Salpingoeca helianthica)
Construct (chain): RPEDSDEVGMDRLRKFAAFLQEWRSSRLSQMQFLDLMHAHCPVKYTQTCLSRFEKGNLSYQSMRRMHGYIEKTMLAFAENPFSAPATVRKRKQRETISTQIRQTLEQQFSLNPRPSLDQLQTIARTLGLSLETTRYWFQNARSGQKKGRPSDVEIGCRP
Oligonucleotide | relative binding energy [ln ratio]
ATGCGGGA | 1.37
ATCTGTAT | 1.08
ATTAGAAT | 0.205
AGTATAAT | 0.445
GGGTTAAT | -0.00767
ATGCATTT | 1.23
ATGCGCTA | 1.11
ATGCGTAT | 1.17
ATGCGCGT | 1.44
ATATACAT | 0.759
ATGCCAGT | 1.36
ATGAACAT | 1.05
CTCGTAAT | -0.73
TACTTAAT | 0.187
ATCTTGAT | 1.22
CAAGTAAT | 0.497
ATGCAGTA | 1.28

Block 2 — target: CCNB3, cyclin fold, Cln2 fusion (human); technique: yeast growth competition, sequencing; sample: yeast; setting: weak parent motif; relative to: not given; reading: higher = stronger binding
Starting sequence: INSM1 docking peptide (human); PKAIRKLHFEDEV
Variant | normalised enrichment score
PYAIRKLHFEDEV [K2Y] | 0.477
PKAIRKLHFEAEV [D11A] | 0.426
PKAIRKLHFEREV [D11R] | 0.105
PKAIRKLHFLDEV [E10L] | -0.0395
PTAIRKLHFEDEV [K2T] | 0.495
PNAIRKLHFEDEV [K2N] | 0.263
PKAIRKLIFEDEV [H8I] | 0.572
PKAIRKLHFECEV [D11C] | 0.571
PKAIRKLRFEDEV [H8R] | -0.257
PKAIRKLCFEDEV [H8C] | 1.02
PKAIRKLHFEDYV [E12Y] | 0.37
PKAYRKLHFEDEV [I4Y] | -0.0443
PKAIRKLVFEDEV [H8V] | 0.676
PKAPRKLHFEDEV [I4P] | 0.249
PKAIRKLHLEDEV [F9L] | 0.0928
PKAIRKLHFWDEV [E10W] | 0.462
PKAIRKLMFEDEV [H8M] | -0.0342
PKAIRKLHEEDEV [F9E] | 0.21
PKAIRKLEFEDEV [H8E] | 0.113
PKAIRKLHQEDEV [F9Q] | -0.212
PKAIRKLHFENEV [D11N] | 0.343

Block 3 — technique: DHFR PCA, deep sequencing; sample: yeast; with: (+)-ABA 200 µM; relative to: wild-type fitted maximum; reading: higher = stronger binding
Target: ABI1, truncated, D143A, DHFR fusion (Arabidopsis thaliana)
Setting: methotrexate growth selection, single substitutions
Starting sequence: PYL1, truncated, DHFR fusion (Arabidopsis thaliana); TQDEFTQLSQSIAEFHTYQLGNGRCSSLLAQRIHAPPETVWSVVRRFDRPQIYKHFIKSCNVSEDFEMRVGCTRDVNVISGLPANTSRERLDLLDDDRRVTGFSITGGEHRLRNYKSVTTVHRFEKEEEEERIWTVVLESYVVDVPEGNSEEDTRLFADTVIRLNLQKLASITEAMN
Variant | relative binding score [%]
L20G | 104
Y141I | 9.61
Q10N | 97
S59K | 100
D48H | 60.7
F66H | 93.1
T160P | -2.8
R123V | 86
H34S | 98.2
Q7G | 102
R163W | 39.6
E147H | 96
L166H | 89.9
S63W | 82.8
V43R | 48.9
N149P | -0.583

Block 4 — technique: RNA Bind-n-Seq; form: RNA; sample: in vitro; tested at: 1 µM; setting: whole 134-nt RNA, ends assumed; with: 150 mM KCl; relative to: input library; reading: higher = stronger binding
Target: Ras GTPase-activating protein-binding protein 1, RRM domain (G3BP1, Homo sapiens, UniProt Q13283)
UniProt Q13283, sequence (whole entry, looked up): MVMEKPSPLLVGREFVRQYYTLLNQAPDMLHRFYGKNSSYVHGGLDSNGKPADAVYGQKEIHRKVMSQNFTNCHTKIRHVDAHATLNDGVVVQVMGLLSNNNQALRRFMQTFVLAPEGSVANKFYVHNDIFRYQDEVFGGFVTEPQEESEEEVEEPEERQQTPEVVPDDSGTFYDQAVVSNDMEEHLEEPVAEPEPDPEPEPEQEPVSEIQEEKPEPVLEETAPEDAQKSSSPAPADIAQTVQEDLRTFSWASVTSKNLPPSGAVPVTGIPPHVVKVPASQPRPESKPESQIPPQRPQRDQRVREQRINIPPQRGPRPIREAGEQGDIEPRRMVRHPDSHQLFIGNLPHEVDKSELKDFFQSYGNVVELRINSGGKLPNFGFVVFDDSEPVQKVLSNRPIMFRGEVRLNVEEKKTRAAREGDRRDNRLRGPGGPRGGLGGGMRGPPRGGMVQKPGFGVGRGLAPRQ
All sequences stand within: GGGAGUUCUACAGUCCGACGAUC … UGGAAUUCUCGGGUGUCAAGG
Oligonucleotide | log2 enrichment
GCAGGAAGUAAAAACAAAUGGAAAUGCUUCGGAUAGUGGCAGGGGUGGGGGUUGAAAAGGAAAGGGUGGGAUGGGAGUGGGUAAAGAGUU | 1.12
CACAGACAACACGCACCCACACAGACACAGAGGGAAGGGGUUGGGAUGGGGACAGGGUGCACAGCAGGGCGGGGUAGGACCCAAGCCCCU | -0.412
CACAGACAACACGUACCCACACAGACACAGAGGGAAGGGGUUGGGAUGGGGACAGGGUGCACAGCAGGGCGGGGUAGGACCCCAGCCCCU | 0.0319
CUCAAGUCCUGUGCUACACAUCGUAUGUACCGAAUCGGGGCGGCGGGGCGGGGAAAGUAUUAUGUUACGCCGUUCGGAUCUGCACUUCCA | 0.115
UCAAGUCCUGUGCUACACAUCGUAUGUACCGAAUCGGGUGGGUUUGGGUUUGGGAAAGUAUUAUGUUACGCCGUUCGGAUCUGCACUUCC | 0.536
GUCCUGUGCUACACAUCGUAUGUACCGAAUCGGCCCCCCGGCCCCCCGGGCCCCCCGGGAAAGUAUUAUGUUACGCCGUUCGGAUCUGCA | -0.445
UGGCCCUGGUGGCAUGCGGGGAGGAAGAGGUGGCCUCAUGGAUCGUGGUGGUCCCGGUGGAAUGUUCAGAGGUGGCCGUGGUGGACACAG | 2.08
AAGUCCUGUGCUACACAUCGUAUGUACCGAAUCGGGUUUGGGAAAAAAAGGGAGGGAAAGUAUUAUGUUACGCCGUUCGGAUCUGCACUU | 0.778
CUCAAGUCCUGUGCUACACAUCGUAUGUACCGAAUCGGCCGGGCCGGGGCCGGGAAAGUAUUAUGUUACGCCGUUCGGAUCUGCACUUCC | -0.575
AAGUCCUGUGCUACACAUCGUAUGUACCGAAUCGGGGCCCGGGCCCGGGGCCCGGGAAAGUAUUAUGUUACGCCGUUCGGAUCUGCACUU | -1
UAACUUUAGAGGAGGAUCUGAUGGAUAUGGCAGUGGACGUGGAUUUGGGGAUGGCUAUAAUGGGUAUGGAGGAGGACAUGGAGGUGGCAA | -0.415
AAGUCCUGUGCUACACAUCGUAUGUACCGAAUCGGAAAAAAAGGAAAAAAAGGUGGAAAGUAUUAUGUUACGCCGUUCGGAUCUGCACUU | 0.044
UGUCAUGGAUUCAAGUUAUUAAAAGCAUAAGUUUGGAAGACAGGCUUGCCGAAAUUGAGGACAUGAUUAAAAUUGCAGUGAAGUUUGAAA | -0.256
UGUUGCCGUGUGUCUCACCCUACCAUUUCAGAAAAAUGUUCGUUGGUGGCCUGAGCUGGGAUACUAGCAAAAAAGAUUUAAAAGACUAUU | -0.207

Block 5 — technique: protein-binding microarray; form: double-stranded DNA, one strand shown; sample: in vitro; tested at: 0.8 µM; setting: whole 60-bp probe, no competitor; reading: higher = stronger binding; all sequences stand within: … GTCTTGATTCGCTTGACGCTGCTG
Target: Centromere-binding protein 1, full length, N-terminal tag (CBF1, Saccharomyces cerevisiae, UniProt P17106, residues 1-351)
UniProt P17106, sequence (whole entry, looked up): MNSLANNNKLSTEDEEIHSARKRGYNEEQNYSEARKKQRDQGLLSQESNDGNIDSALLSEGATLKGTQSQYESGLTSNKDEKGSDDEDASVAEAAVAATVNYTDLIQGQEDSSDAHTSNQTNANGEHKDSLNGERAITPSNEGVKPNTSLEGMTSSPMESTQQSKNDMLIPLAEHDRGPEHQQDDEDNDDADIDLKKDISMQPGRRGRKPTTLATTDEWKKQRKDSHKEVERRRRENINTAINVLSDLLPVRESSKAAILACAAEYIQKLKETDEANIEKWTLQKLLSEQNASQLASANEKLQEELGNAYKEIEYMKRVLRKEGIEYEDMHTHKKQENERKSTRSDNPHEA
Oligonucleotide | fluorescence intensity [a.u.]
CTAGCATAAAGCTCCCCCGTCATGAACATTAAGTTC | 468
GAAACTTTGCATTATCACATCAGACGGAATTGTTAG | 606
GAACTGGTTTTGTGACACATGGAATAATATCATTAG | 670
GAATGCATTTGCTGTCTGCTGATGTCAATTAATTAG | 889
CTAATTGCACGCCTCCTCGTGAGTAGTGACCGTTTC | 764
GAAAAAGCAGTTTCATACGTGCCACAGCTTTGGTAG | 519
GAAAAAGCACATGCTATCGTGTCATCATTTCGTTAG | 782
CTAGCTTGAAACGAACGCACCACGAAGTCAGTGTTC | 516
GAAACAATATCGCGCTACGTGCGTTTTTTGGTCTAG | 834
CTACCATATGGATACCATGTGGTATAAGAGGGCTTC | 704
CTACTGTTTGTTAATCACCTCACGACTGTTGCATTC | 583
CTATCACTATGCGGTGTGATGATGTGCTATACCTTC | 558
CTATCGATTAGTATTCATGTCACTAGTATATTATTC | 574
GAATCTGATCTATTTCACGCCCAGAAAAAAGGCTAG | 2230
GAACAGGGGATTCATCTGATGATGGAAAAAGTTTAG | 535
TGTACGAAGCTATGCCACGGGGCTATAGTAGTTAGG | 591

Single results of other studies
Molecule | target | assay | test system | setting | how to read | quantity | result
PhoQ, residues 284 288 289 292 302 303 TLSLKA | PhoP, residues 12 14 15 18 19 NHFRA (Escherichia coli, UniProt P23836) | Sort-seq, refers to: YFP reporter | E. coli | PhoQ-PhoP variant library, with: 10 µM Mg2+ | relative to: high Mg2+ state, higher = stronger signaling | fold induction | 5.44

Repeated from above (block 5):
Oligonucleotide | fluorescence intensity [a.u.]
GAAACTTTGCATTATCACATCAGACGGAATTGTTAG | 606
GAACTGGTTTTGTGACACATGGAATAATATCATTAG | 670
GAATGCATTTGCTGTCTGCTGATGTCAATTAATTAG | 889
CTAATTGCACGCCTCCTCGTGAGTAGTGACCGTTTC | 764
GAAAAAGCAGTTTCATACGTGCCACAGCTTTGGTAG | 519
GAAAAAGCACATGCTATCGTGTCATCATTTCGTTAG | 782
CTAGCTTGAAACGAACGCACCACGAAGTCAGTGTTC | 516
GAAACAATATCGCGCTACGTGCGTTTTTTGGTCTAG | 834
CTACCATATGGATACCATGTGGTATAAGAGGGCTTC | 704
CTACTGTTTGTTAATCACCTCACGACTGTTGCATTC | 583
CTATCACTATGCGGTGTGATGATGTGCTATACCTTC | 558
CTATCGATTAGTATTCATGTCACTAGTATATTATTC | 574
GAATCTGATCTATTTCACGCCCAGAAAAAAGGCTAG | 2230
GAACAGGGGATTCATCTGATGATGGAAAAAGTTTAG | 535
